# Measured values from different studies.
# Protocols differ between the studies behind these lines. Values joined by “and” are separate records of one study, mostly repeats; a detail may differ. ± gives the spread as reported.
SMILES,cell line,assay,conditions,how to read,endpoint,value
CCOn1c(=O)c[n+]([O-])c2ccccc21,LDR,"silenced CMV-GFP reporter derepression, qHTS",,,efficacy,170%
CC(=O)c1nn(-c2ccc(Cl)cc2)/c(=N/N=C(\C)c2ccc(NC(=O)c3ccc(C)cc3)cc2)s1,MCF7,,0.156 µM,,toxicity,0.172%
COc1cc2ncnc(Nc3ccc(Oc4ccccc4)cc3C)c2cc1OC.O=C(O)C(F)(F)F,MeWo (NF1),"cell viability, resazurin","0.3 µM, 72 h, together with: trametinib 0 nM",,average fractional effect,1.76%
CCN(CC)c1ccc2c(c1)oc(=O)c1c(Cl)cc(=O)oc12,LDR,"silenced CMV-GFP reporter derepression, qHTS",,,efficacy,82%
CC(C)NCC(O)c1ccc(O)c(O)c1 (centres unmarked),mouse ventricular cardiomyocytes,,"dose not given, 0 s",,sarcomere length,1.8 µm
Cc1cc(Nc2ncc(Cl)c(Nc3ccccc3S(=O)(=O)C(C)C)n2)c(OC(C)C)cc1C1CCNCC1,CLB-BAR,"phosphoproteomics LC-MS/MS, refers to: ERF phosphorylation","0.2 µM, 1 h",relative to: untreated,log2 fold change,-4.45
CCc1ccc(NC(=O)Nc2c[nH]c3ccccc23)cc1,RAW-ISG,"RT-qPCR, refers to: IFNB1","10 µM, unit not given, together with: HT-DNA",relative to: relative,mRNA level,0.0305
CCn1cc(-c2cc(Cn3ccoc3=N)cc3c2CCN([C@@H](C)c2cc(OC)ccn2)C3=O)c(C(F)(F)F)n1,SHP77,"cell growth, inhibitor",120 h,,EC50,1.41 µM
CC/C(=N\NC(=O)NCc1cccc(O)c1)c1ccc(O)c(C)c1O,SK-OV-3,"gene expression, microarray, refers to: PSG1","10 µM, 24 h",relative to: DMSO,log ratio,3.86
CC(=O)Nc1cccc(-n2c(=O)n(C3CC3)c(=O)c3c(Nc4ccc(I)cc4F)n(C)c(=O)c(C)c32)c1,MeWo (NF1),"cell viability, resazurin","1.56 nM, 72 h",relative to: DMSO,average fractional effect,11%
CSc1cc(Oc2ccnc3[nH]c(=O)cnc23)ccc1NC(=O)Nc1cc(C(C)(C)C)nn1-c1ccccc1,patient-derived cell line clone A,RPPA,"1 µM, 4 h",relative to: DMSO,phospho-Akt Ser473/total ratio,0.43
CCn1cc(-c2cc(Cn3ccnc3)cc3c2CCN([C@H](c2cc(OC)ccn2)C2CC2)C3=O)c(C(F)(F)F)n1,HT55,"cell growth, inhibitor",120 h,,EC50,3.12 µM
Cn1cc(Nc2nccc(-c3ccc4c(c3)CN(C3COC3)CC[C@H]4NC(=O)c3cn(C(C)(C)C)nn3)n2)cn1,mouse splenic B cells,refers to: Ceramide signalling,"30 mg/kg, IgD-activated in vivo","relative to: vehicle, direction not given",pathway activation z-score,-0.258
O=S(=O)(NNc1nnc(Cl)c2ccccc12)c1ccc(F)cc1,Vero,MTT,250 µg/mL,,cytotoxicity,75.1%
CC[C@H](C)[C@H](NC(=O)[C@H](CCCCN)NC(=O)[C@@H](NC(=O)[C@H](CCCNC(=N)N)NC(=O)[C@@H](NC(=O)[C@@H](CCCNC(=N)N)NC(=O)[C@@H](CCCNC(=N)N)NC(=O)[C@@H](CCCNC(=N)N)NC(=O)[C@@H](CCCNC(=N)N)NC(=O)[C@@H](CCCNC(=N)N)NC(=O)[C@H](N)CCCNC(=N)N)[C@@H](C)O)[C@@H](C)O)C(=O)N[C@@H](CC(=O)O)C(=O)N[C@@H](Cc1c[nH]c2ccccc12)C(=O)NC(C)(C)C(=O)N[C@@H](CCCCN)C(=O)N[C@H](C(=O)N[C@@H](CC(C)C)C(=O)NC(C)(C)C(=O)N[C@@H](CCCCN)C(=O)NCCCCCC(=O)NCCCC[C@H](NC(=O)CCCCCNC(=O)[C@H](CCCCN)NC(=O)C(C)(C)NC(=O)[C@H](CC(C)C)NC(=O)[C@@H](NC(=O)[C@H](CCCCN)NC(=O)C(C)(C)NC(=O)[C@H](Cc1c[nH]c2ccccc12)NC(=O)[C@H](CC(=O)O)NC(=O)[C@@H](NC(=O)[C@H](CCCCN)NC(=O)[C@@H](NC(=O)[C@H](CCCNC(=N)N)NC(=O)[C@@H](NC(=O)[C@@H](CCCNC(=N)N)NC(=O)[C@@H](CCCNC(=N)N)NC(=O)[C@@H](CCCNC(=N)N)NC(=O)[C@@H](CCCNC(=N)N)NC(=O)[C@@H](CCCNC(=N)N)NC(=O)[C@H](N)CCCNC(=N)N)[C@@H](C)O)[C@@H](C)O)[C@@H](C)CC)[C@@H](C)CC)C(N)=O)[C@@H](C)CC,SK-MEL-5,annexin V/PI flow cytometry,"10 µM, 2 h",,necrotic cells,11%
Cc1cccc(-c2[nH]c(CNc3ccccc3F)nc2-c2ccc3ncnn3c2)n1,bone marrow CD138+ myeloma cells,XTT,"1.8 µM, phenol red-free RPMI",,viability,7%
CCCCCCCCCCCCCCCC(NCc1ccccc1O)=C1C(=O)OC(CO)C1=O (centres unmarked),G2-synchronized tsFT210 cells,flow cytometry,"5 µM, 4 h, 32 °C, release from G2 arrest",,G1 phase cells,59.2%
COc1cnc2cccc(N3CCc4c(cc(Cn5ccnc5C)cc4-c4cn(C)nc4C(F)(F)F)C3=O)c2c1,SHP77,"cell growth, inhibitor",120 h,,EC50,> 30 µM
O=C(Nc1nnc2n3c(Cc4ccccc4)n[nH]c3nc(-c3ccc(Cl)cc3)c1-2)c1ccccc1,SR,SRB,"10 µM, NCI60 single-dose screen",relative to: untreated,cell growth,89.3%
Cn1cnc2c1c(=O)n(CC(=O)Nc1c(Cl)cccc1Cl)c(=O)n2C,Vero,MTT,1000 µg/mL,,cytotoxicity,92%
O=C1N=C(N2CCCCC2)S/C1=C\c1cccnc1,NG108-cl,"clomeleon fluorescence, refers to: intracellular chloride reduction",5 h,,EC50,inactive
Cc1cnc2ccc3c(c2n1)N1CCC(O)N=C1N3C (centres unmarked),BALB/c 3T3,colony forming efficiency,0.5 µM,,colony number,102 colonies per plate and 101 colonies per plate
CCCN1CCN(c2ccc3[nH]c(-c4ccc5[nH]c(-c6cc(OC)c(OC)c(OC)c6)nc5c4)nc3c2)CC1,SNB-19,SRB,"10 µM, 48 h",,growth percent,69.8%
C[C@H](Nc1ccc2c(c1)OCCn1cc(N3C(=O)OC[C@H]3C(F)F)nc1-2)C(N)=O,NCI-H1563,"cell growth, CellTiter-Glo",120 h,,Hill coefficient GR curve,0.693
O=C(/C=C/C=C/C=C/C1CCCCC1)NC1=C[C@@](O)(/C=C/C=C/C=C/C(=O)NC2=C(O)CCC2=O)[C@@H]2O[C@@H]2C1=O,SW480,"cell growth, CellTiter-Glo",78 h,,GI50,15.1 µM
Cn1c(Nc2nc3ccc(C(F)(F)F)cc3s2)nc2cc(C(=O)NCCOCCO)ccc21,SH-SY5Y,"RNA-seq, refers to: FBLIM1 mRNA","5 µM, 5 h",relative to: untreated cells,fold change,1.73
CC/C(=N\NC(=O)C(C)Nc1ccccc1)c1ccc(O)c(C)c1O (centres unmarked),SK-OV-3,Western blot,"10 µM, 1 h, 3D gellan gum culture, unit not given",relative to: DMSO,LATS band intensity,0.21 ± 0.22
Cc1nn(-c2nc3c(F)cc(F)cc3s2)c(O)c1C(c1ccc(C(F)(F)F)cc1)c1c(C)nn(-c2nc3c(F)cc(F)cc3s2)c1O,THP1-Dual,western blot,"40 µM, dose series, together with: HT-DNA",relative to: DMSO,phospho-TBK1 to TBK1 ratio,0.454 and 0.278 and 0.33
O=P1(C2CCCCC2)CCCCC1,SW480,annexin V/PI flow cytometry,"IC50, 72 h",,necrotic cells,1.95%
COc1cccc(N2CCN(S(=O)(=O)c3ccc(-n4cnnn4)cc3)CC2)c1,LDR,"silenced CMV-GFP reporter derepression, qHTS",,,efficacy,21%
O=c1[nH]nc(OCCCc2ccc(Cl)cc2)c(NCc2cccnc2)c1Br,HEK293T,"RNA-seq, refers to: SERPINH1 mRNA","10 µM, 6 h",relative to: vehicle,log2 fold change,-0.167
Clc1nc(NCc2ccco2)c2[nH]cnc2n1,iPSC-derived cardiomyocytes,"RNA-seq, refers to: ANKRD10 chr13 exon ending 110900661",unit not given,relative to: DMSO minus compound,ΔPSI,-0.206
COC(=O)COc1c(Cc2cc(C(C)(C)CC(C)(C)C)cc(-n3nc4ccccc4n3)c2OCC(=O)OC)cc(C(C)(C)CC(C)(C)C)cc1-n1nc2ccccc2n1,Vero,MTT,"100 µM, 24 h",,growth inhibition,8.22 ± 0.66%
COC(=O)N[C@@H](C)CNc1nccc(-c2cn(C(C)C)nc2-c2cc(Cl)cc(NS(C)(=O)=O)c2F)n1,SK-MEL-239 C4 (p61 BRAF V600E),"ERK phosphorylation, Western blot",1 h,,IC75,0.385 µM
Cc1nc(N(Cc2ccccc2)c2ccc3c(c2)/C(=C/c2ccccc2)C(=O)N3Cc2ccccc2)c2ccccc2n1 (mixture of isomers),LLC,,"0.5 µM, 24 h",,wound healing rate,43.5%
COc1ccc2c(N(C)c3ccc(/C(C)=N/OCCN)cc3)c3c(Cl)coc3nc2c1,"LNCaP C-81, docetaxel-resistant",trypan blue exclusion,"1 µM, 72 h",,growth inhibition,70 to 80%
CSc1nsc(/C=C/Nc2cccc(Cl)c2)c1C#N,LDR,"silenced CMV-GFP reporter derepression, qHTS",,,efficacy,100%
C=CC1=C(C)c2cc3[n-]c(cc4nc(cc5[n-]c(cc1n2)c(C)c5C=C)C(C)=C4CCC(=O)O)c(CCC(=O)O)c3C.[Zn+2],SH-SY5Y,"RNA-seq, refers to: DKK1 mRNA","5 µM, 5 h",relative to: untreated cells,fold change,1.62
C=CC(=O)N1CCC[C@@H](n2nc(-c3ccc(Oc4ccccc4)cc3)c3c(N)ncnc32)C1,REC-BTK^C481S,cell growth,72 h,,GI50,24.6 µM
O=C(C[C@@H](C(F)F)n1ccc(F)n1)N1CCC(O)(Cn2cnc3c(cnn3-c3ccc(F)cc3)c2=O)CC1,CHP-212 parental (wild-type USP7),annexin V-PI flow cytometry,"0.3 µM, 48 h",,viable cells (annexin V-/PI-),65.2% and 64.8% and 70.2%
Cn1cc(-c2ccc(-c3cncc(Cl)c3N3CCC4(CCNC4=O)CC3)cc2)cn1,COLO 205,"gene expression, microarray, refers to: LAMA3 mRNA","concentration not given, 6 h",relative to: untreated cells,log2 fold change,3.7
Cc1nc(CSc2nsc(/C=C/N(C)C)c2C#N)cs1,LDR,"silenced CMV-GFP reporter derepression, qHTS",,,efficacy,129%
COc1cc(/C=C/C(=O)N2CCC=CC2=O)cc(OC)c1OC,MDA-MB-468,"quantitative RT-PCR, refers to: XIAP","30 µM, 8 h",relative to: untreated cells,mRNA level,64 ± 3.7%
CCCCCCCCCCCCCCC/C(NCc1ccccc1)=C1/C(=O)OC(CO)C1=O (centres unmarked),G2-synchronized tsFT210 cells,flow cytometry,"5 µM, 4 h, 32 °C, release from G2 arrest",,G1 phase cells,64.6%
CCCCN1C[C@H](O)[C@@H](O)[C@@H](O)[C@H]1CO,sample F patient fibroblasts,"Gb3 level lowering, LC-MS/MS, refers to: Gb3 d18:1/20:0",216 h,,IC50,8.8 µM
Oc1[nH]c2ccccc2c1N=NC(=S)N1CCOCC1,LDR,"silenced CMV-GFP reporter derepression, qHTS",,,efficacy,141%
NS(=O)(=O)OC[C@@H]1C[C@@H](n2ccc3c(N[C@H]4CCc5ccccc54)ncnc32)C[C@@H]1O,HiBiT-BRD4 LgBiT cells,,"0.1 µM, no PROTAC",,increase in BRD4 level,~40%
